Results pooled from the literature.
Lines come from different studies, so protocols differ. Several values in a cell are separate wells, animals, samples, runs or records. Numbers after ± are the reported error.

SMILES	test	test system	conditions	scale	measurement	result
CC(C)=CC(=O)O	binding, MIDAS equilibrium dialysis LC-MS	A2AR-BRIL thermostabilized	concentration not given	relative to: no-protein control	log2 fold change	-0.286
O=C(O)CNC(=O)Cc1ccccc1		ventricular cardiomyocytes, C57BL/6 mouse	dose not given, 0.652 s		sarcomere length	1.72 µm
Cc1cc([C@H]2C[C@H]3[C@@H](CF)SC(N)=N[C@@]3(c3ccc(F)cc3F)CO2)on1	refers to: Aβx-40	wild-type mouse, brain	subcutaneous, 100 mg/kg, 3 h		brain Aβ40 level	1.5 ng/g
Cc1n[nH]c2ccc(-c3cc(OC[C@@H](N)Cc4ccccc4)cnc3-c3ccoc3)cc12	kinase binding, competitor, MIB/MS competition, refers to: CAK1	Candida albicans cell lysate	1 µM	relative to: DMSO	log2 fold change	0.067
COc1ccc(-c2cncc(N[C@@H](C)c3cccc(NC(=O)c4cncc(C)c4)c3)n2)cc1OC	refers to: rno-miR-204-5p	rat SU5416/hypoxia model, lung	dose not given, unit not given	relative to: SU5416/hypoxia vehicle	delta delta Ct	-0.927
C=CCn1c(=O)c2cnc(Nc3ccc(N4CCN(C)CC4)cc3)nc2n1-c1ccc2c(n1)[C@@](O)(CC)CC2		OVCAR-3 xenograft, NOD/SCID mouse	100 mg/kg once daily, :2		tumour growth inhibition	104%
CN(C)C(=O)c1cc2cnc(Nc3ccc(N4CCNCC4)cn3)nc2n1C1CCCC1	RNA-seq GSEA, refers to: HALLMARK_APOPTOSIS	MB002 tumour	concentration not given, in vivo	relative to: vehicle, direction not given	normalized enrichment score	-1.14
CC(O)CC(=O)SCCNC(=O)CCNC(=O)[C@H](O)C(C)(C)COP(=O)(O)OP(=O)(O)OC[C@H]1O[C@@H](n2cnc3c(N)ncnc32)[C@H](O)[C@@H]1OP(=O)(O)O (some centres unmarked)	binding, MIDAS equilibrium dialysis LC-MS	A2AR-BRIL thermostabilized	concentration not given	relative to: no-protein control	log2 fold change	-0.495
COc1cccc2c1C(=O)c1c(O)c3c(c(O)c1C2=O)C[C@@](O)(C(=O)CO)C[C@@H]3O[C@H]1C[C@H](N)[C@H](O)[C@H](C)O1	organoid viability, CellTiter-Glo 3D	sample D colorectal cancer organoid, human	6 days		IC50	0.96 nM
Cc1cc(C(C)(C)C)c(O)c(C(C)(C)C)c1	DPPH	methanol	concentration not given, 30 min		DPPH radical scavenging	31.3 ± 0.1%
CCCCC1(CCCC)CN(c2ccccc2)c2cc(SC)c(OCC(=O)N[C@@H](C(=O)NCC(=O)O)c3ccccc3)cc2S(=O)(=O)C1	refers to: 7α-hydroxy-4-cholesten-3-one	human, plasma	20 mg once daily, day 9		plasma C4	76.1 ng/mL
CC1=NN(c2ccccc2)C(=O)C1	Y-maze	Rattus norvegicus, MCAO/R model	concentration not given, day 21 post-stroke		spontaneous alternation rate	70.2%
COc1ccc(F)cc1C(=O)NCc1ccc(-c2nn([C@@H](C)C(F)(F)F)c(N)c2C(N)=O)cc1		prior Richter's transformation patients	dose not given		response rate	75%
O=P(O)(O)C(Cl)(Cl)P(=O)(O)O	immunostaining	mouse, sham-operated, meninges	dose not given, day 7	relative to: total area	GFAP-positive area	3.21%
Cc1cc(Nc2cc3ncccc3c(N[C@@H]3C[C@H]4CC[C@@H](C3)N4CCC#N)n2)n[nH]1		moderate-severe ulcerative colitis patients	80 mg, day 28, Mayo subscore, unit not given	relative to: baseline	change physician global assessment	-0.2
NC(=O)c1cnc2[nH]ccc2c1N[C@@H]1[C@@H]2CC3C[C@H]1C[C@@](O)(C3)C2	regulatory T cells, flow cytometry	Caucasian humans, peripheral blood	200 mg single dose	relative to: baseline	percent change	-0.13%
N[C@@H](CC(=O)N1CCn2c(nnc2C(F)(F)F)C1)Cc1cc(F)c(F)cc1F	refers to: epithelial, immune, stromal cells	naive C57BL/6J mice	oral, 100 mg/kg twice daily, 2 d		Ki-67+ proliferating cells	no effect
C[C@H](Oc1ccc(Br)cc1-c1ccon1)C(=O)O	muscle velocity recovery cycles	human, tibialis anterior muscle	400 mg twice daily, multiple doses, frequency ramp, first response at 30 Hz	relative to: placebo	peak amplitude change	-5.52%
O=C1Nc2cc3[nH]nc(-c4ccncc4)c3cc2CN1Cc1ccccc1	RECIST v1.1	human, relapsed or refractory advanced solid tumours	intravenous, 3.6 mg/kg		progressive disease, best response	0%
OC[C@H]1O[C@H](OC[C@H]2O[C@H](OC[C@H]3O[C@H](O[C@]4(CO)O[C@H](CO)[C@@H](O)[C@@H]4O)[C@H](O)[C@@H](O)[C@@H]3O)[C@H](O)[C@@H](O)[C@H]2O)[C@H](O)[C@@H](O)[C@H]1O	binding, MIDAS equilibrium dialysis LC-MS	A2AR-BRIL thermostabilized	concentration not given	relative to: no-protein control	log2 fold change	0.255
OC(CCN1CCCCC1)(c1ccccc1)C1CC2C=CC1C2 (centres unmarked)	resting-state EEG	healthy elderly humans	oral, 2 mg, eyes open, LS mean		EEG Beta1-power Fz-Cz	2.3 µV²
N#Cc1ccc2c(c1)[C@H]1CCCN(C(=O)c3ccc4[nH]cnc4c3)[C@H]1C2		T2DM patients with overweight or obesity, plasma	oral, 10 mg, day 15 (360 h), multiple dosing, mean		fasting plasma insulin	20.2 mU/L
CC(C)c1c(C(=O)Nc2ccccc2)c(-c2ccccc2)c(-c2ccc(F)cc2)n1CC[C@@H](O)C[C@@H](O)CC(=O)O		cynomolgus monkey, male, serum	40 mg/kg or 25 mg/kg, day 176, 4224 h		HDL-C	64 mg/dL
C[C@H]1O[C@@H](O[C@H]2CC[C@@]3(C)[C@@H](CC[C@]4(C)[C@@H]3C=C[C@]35OC[C@@]6(CCC(C)(C)C[C@H]63)[C@@H](O)C[C@]54C)[C@]2(C)CO)[C@H](O)[C@@H](O[C@@H]2O[C@H](CO)[C@@H](O)[C@H](O)[C@H]2O)[C@H]1O	H&E staining	chronic-plus-binge ethanol mice	dose not given, high dose		adipose area	7.12% and 6.73% and 8.55% and 9.73%
O=C(O)/C=C\C(=O)O	binding, MIDAS equilibrium dialysis LC-MS	A2AR-BRIL thermostabilized	concentration not given	relative to: no-protein control	log2 fold change	-0.131

SMILES	test	test system	conditions	scale	measurement	result
N#CCC1CCN(c2nc(Nc3ccc(N4CCC(O)CC4)cc3)c3c(=O)[nH]ncc3n2)CC1	Olink multiplex	human, serum	20 mg, day 29, unit not given	relative to: baseline	GIF level change	1.08
N#Cc1ccn2c(-c3ccncc3)c(-c3ccc(F)cc3)nc2c1	kinase binding, competitor, MIB/MS competition, refers to: NPR1	Candida albicans cell lysate	100 nM	relative to: DMSO	log2 fold change	0.00233
O=C1O[C@H]([C@@H](O)CO)C(O)=C1O	FRAP		40 µM		ferric reducing power	22.7%
COc1cc2nccc(Oc3ccc(NC(=O)c4cc5c(n(-c6ccccc6)c4=O)CCCC5=O)nc3)c2cc1OC	Mantel-Haenszel	MOLM-13 luc/gfp xenograft, mice	diet, 0.013% in feed	relative to: control over treated	hazard ratio	5.53
CO[C@H]1CC[C@H](N2C(=O)CNc3ncc(-c4ccc(C(C)(C)O)nc4)nc32)CC1	flow cytometry	stimulated monocytes, human, blood	30 mg single dose, 24 h, mean	relative to: baseline	pAKT change from baseline	-35.3%
COc1cc(C(O)C(=O)O)ccc1O (racemic)	binding, MIDAS equilibrium dialysis LC-MS	A2AR-BRIL thermostabilized	concentration not given	relative to: no-protein control	log2 fold change	-1.51
C[C@H]1C[C@H]2CSC(N)=N[C@@]2(c2nc(NC(=O)c3ccc(OC(F)F)cn3)cs2)CO1	refers to: Aβ1-40	healthy adults, plasma	160 mg single dose, 48 h post-dose	relative to: placebo	percent change from baseline	-82%
C[C@H](CS)C(=O)N1CCC[C@H]1C(=O)O	LC-MS/MS, refers to: extracellular Met-enkephalin	mouse striatal brain slices	10 µM, 20 min, with: 50 mM KCl		Met-enkephalin concentration	3030 pM and 1930 pM and 3870 pM and 1520 pM and 1700 pM
NCC(=O)Nc1cncc(-c2nn3c(=O)cc(N4CCNCC4)nc3s2)c1	ADP-induced platelet aggregation, light transmission aggregometry	human, stable CAD on aspirin, ex vivo platelets	subcutaneous, 0.04 mg/kg, 5 min post-dose, mean value, with: ADP 20 µM		inhibition	20.5%
CC1=CC(=O)CC(C)(C)[C@@]1(O)/C=C/C(C)=C\C(=O)O	RNA-seq, refers to: AT1G02205	Arabidopsis thaliana Col seedlings	dose not given	relative to: DMSO	log2 fold change	4.2
CN(C(=O)n1cnc(-c2ccc[n+]([O-])c2)c1)C1CCCCC1		mouse, brain	oral, 10 mg/kg, 8 h		anandamide level	100 ± 9.3 pmol/g
Cc1coc([C@H]2C[C@H]3[C@@H](CF)SC(N)=N[C@@]3(c3ccc(F)cc3F)CO2)n1	refers to: Aβx-40	Mus musculus wild-type, cerebrospinal fluid	subcutaneous, 80 mg/kg, 1 h		Aβ40 level	0.86 ng/mL
Nc1ccn([C@H]2C[C@H](O)[C@@H](COP(=O)(O)O)O2)c(=O)n1	binding, MIDAS equilibrium dialysis LC-MS	A2AR-BRIL thermostabilized	concentration not given	relative to: no-protein control	log2 fold change	0.234
COc1ncnn2ccc(-c3cnc4nc(C)n(Cc5nnc([C@@H](C)F)o5)c4c3)c12		Homo sapiens, relapsed or refractory AML or MDS	dose not given, responding patient		longest duration of response	> 2 years
Cn1cc(Nc2nccc(-c3ccc4c(c3)CN(C3COC3)CC[C@H]4NC(=O)c3cn(C(C)(C)C)nn3)n2)cn1	refers to: D-myo-inositol (1,3,4)-trisphosphate Biosynthesis	splenic B cells, mouse	in vivo, 30 mg/kg, IgD-activated B cells	relative to: vehicle, positive = activation	pathway activation z-score	0
CCCCC1(CCCC)CN(c2ccccc2)c2cc(SC)c(OCC(=O)N[C@@H](C(=O)NCC(=O)O)c3ccccc3)cc2S(=O)(=O)C1	qPCR	male mice, ileum	1 mg/kg, after mixed meal tolerance test	relative to: PBS	Asbt mRNA level	no effect
CC(C)NCC(O)c1ccc(O)c(O)c1 (centres unmarked)		ventricular cardiomyocytes, C57BL/6 mouse	dose not given, 0.476 s		sarcomere length	1.6 µm
c1ccc(-c2n[nH]cc2-c2ccnc3ccccc23)nc1	kinase binding, competitor, MIB/MS competition, refers to: HST7	Candida albicans cell lysate	100 nM	relative to: DMSO	log2 fold change	1.35
N[C@H](C(=O)O)c1cc(O)cc(O)c1	field recording	rat hippocampal slice CA3	50 µM, 10 min	relative to: baseline	spontaneous spike inter-event interval	42.9 ± 4.6%
O=C1CCc2ccc(OCCCCN3CCN(c4cccc(Cl)c4Cl)CC3)cc2N1	treatment discontinuation, Cox regression	human patients, CYP2D6 IM/PM/UM	dose not given, 12 months, genetic phenotype only	relative to: CYP2D6 normal metabolizers	hazard ratio	1.59
Nc1ccn([C@H]2C[C@H](O)[C@@H](CO)O2)c(=O)n1	binding, MIDAS equilibrium dialysis LC-MS	A2AR-BRIL thermostabilized	concentration not given	relative to: no-protein control	log2 fold change	-0.18
CSCCNc1nc(SCCC(F)(F)F)nc2c1ncn2[C@@H]1O[C@H](COP(=O)(O)OP(=O)(O)C(Cl)(Cl)P(=O)(O)O)[C@@H](O)[C@H]1O	platelet aggregation, light transmittance aggregometry	human, platelet-rich plasma	dose not given, 15 min, IPA above 90 %, with: TRAP 5 µM	relative to: patients	patients with IPA above threshold	5.1%
Cn1cc(Nc2nc(N)nc(-c3cccc(-n4ccc5cc(C6CC6)cc(F)c5c4=O)c3CO)n2)cn1	CD63 upregulation, anti-IgE-induced	human, multiple ascending dose, whole blood basophils ex vivo	50 mg twice daily, day 14, 6 h		inhibition	77.6%
Nc1nc2c(ncn2[C@@H]2O[C@H](COP(=O)(O)O)[C@@H](O)[C@H]2O)c(=O)[nH]1	binding, MIDAS equilibrium dialysis LC-MS	A2AR-BRIL thermostabilized	concentration not given	relative to: no-protein control	log2 fold change	-0.139
Cc1cc([C@H]2C[C@H]3[C@@H](C)SC(N)=N[C@@]3(c3ccc(F)cc3F)CO2)on1	refers to: Aβx-40	wild-type mouse, brain	subcutaneous, 50 mg/kg, 9 h		brain Aβ40 level	1.42 ng/g

Repeated from above:
SMILES	test	test system	conditions	scale	measurement	result
CN(C)C(=O)c1cc2cnc(Nc3ccc(N4CCNCC4)cn3)nc2n1C1CCCC1	RNA-seq GSEA, refers to: HALLMARK_APOPTOSIS	MB002 tumour	concentration not given, in vivo	relative to: vehicle, direction not given	normalized enrichment score	-1.14
C[C@H](CS)C(=O)N1CCC[C@H]1C(=O)O	LC-MS/MS, refers to: extracellular Met-enkephalin	mouse striatal brain slices	10 µM, 20 min, with: 50 mM KCl		Met-enkephalin concentration	3030 pM and 1930 pM and 3870 pM and 1520 pM and 1700 pM
N[C@@H](CC(=O)N1CCn2c(nnc2C(F)(F)F)C1)Cc1cc(F)c(F)cc1F	refers to: epithelial, immune, stromal cells	naive C57BL/6J mice	oral, 100 mg/kg twice daily, 2 d		Ki-67+ proliferating cells	no effect
